Assay results pooled from the literature.
Lines come from different studies, so protocols differ. ± marks the error that the study gave. In brackets after ≈: the same amount, converted by molar mass.
Organism: Acinetobacter baumannii

| Structure (SMILES) | assay | system | conditions | how to read | measurement | result |
| --- | --- | --- | --- | --- | --- | --- |
| CCn1c(-c2ccc(-c3ccc(F)cc3)cc2)c(-c2ccc(-c3ccc(F)cc3)cc2)n(CC)c1=[Se+][Au-][P+](CC)(CC)CC.[Cl-] | bacterial growth, checkerboard microdilution | carbapenem-resistant | together with: cefotaxime |  | FIC index | 0.375 |
| CC(C)C[C@H](NC(=O)[C@H](Cc1ccc(O)cc1)NC(=O)[C@@H]1CCCN1C(=O)[C@H](CCCNC(=N)N)NC(=O)[C@@H]1CCCN1C(=O)[C@H](CCCCN)NC(=O)[C@H](CC(=O)O)NC(=O)[C@@H]1CCCN1C(=O)[C@H](CCCNC(=N)N)NC(=O)C1(N)CCCCC1)C(=O)N1CCC[C@H]1C(=O)N[C@@H](CCCNC(=N)N)C(=O)N1CCC[C@H]1C(=O)N[C@@H](CCCNC(=N)N)C(=O)N1CCC[C@H]1C(=O)N1CCC[C@H]1C(=O)N[C@@H](CCCNC(=N)N)C(=O)N1CCC[C@H]1C(=O)N[C@H](C(=O)N[C@@H](CCCNC(=N)N)C(=O)N[C@@H](CSc1c(F)c(F)c(-c2c(F)c(F)c(SC[C@H](NC(=O)[C@H](CCCNC(=N)N)NC(=O)[C@@H](NC(=O)[C@@H]3CCCN3C(=O)[C@H](CCCNC(=N)N)NC(=O)[C@@H]3CCCN3C(=O)[C@@H]3CCCN3C(=O)[C@H](CCCNC(=N)N)NC(=O)[C@@H]3CCCN3C(=O)[C@H](CCCNC(=N)N)NC(=O)[C@@H]3CCCN3C(=O)[C@H](CC(C)C)NC(=O)[C@H](Cc3ccc(O)cc3)NC(=O)[C@@H]3CCCN3C(=O)[C@H](CCCNC(=N)N)NC(=O)[C@@H]3CCCN3C(=O)[C@H](CCCCN)NC(=O)[C@H](CC(=O)O)NC(=O)[C@@H]3CCCN3C(=O)[C@H](CCCNC(=N)N)NC(=O)C3(N)CCCCC3)C(C)C)C(=O)NN)c(F)c2F)c(F)c1F)C(=O)NN)C(C)C | time-kill |  | 2 × MIC, 1 h |  | reduction in viable count | 0.68 log CFU/mL |
| CCn1c(-c2ccc(OC)cc2)c(-c2ccc(OC)cc2)n(CC)c1=[Se+][Au-][P+](CC)(CC)CC.[Cl-] |  | carbapenem-resistant | 10, 20, 40 µM, 2 h | relative to: untreated | glutathione content | decreased |
| O=c1c(O)ccc(Br)cc1O |  | multidrug-resistant Ab4 |  |  | MIC80 | 19.8 µM (≈ 4.3 µg/mL) |
| CC[C@H](C)[C@H](NC(=O)[C@H](CCCCN)NC(=O)[C@@H](NC(=O)[C@H](CS)NC(=O)[C@H](CCCNC(=N)N)NC(=O)[C@H](CCCNC(=N)N)NC(=O)[C@H](CC(N)=O)NC(=O)[C@H](CCCNC(=N)N)NC(=O)[C@H](CS)NC(=O)[C@@H](NC(=O)[C@H](CO)NC(=O)[C@@H](NC(=O)[C@H](CS)NC(=O)[C@H](CCCCN)NC(=O)[C@@H](N)CCCNC(=N)N)[C@@H](C)CC)C(C)C)[C@@H](C)CC)C(=O)N[C@@H](CS)C(=O)N[C@@H](CCCNC(=N)N)C(=O)O |  | AB5075, Mueller-Hinton broth | median |  | MBC | 8 mg/L (≈ 3.8 µM) |
| Oc1ccc(C(F)(F)F)cc1-c1nc2c(Cl)cc(Cl)cc2[nH]1 | colistin potentiator | AB 4112, colistin-resistant | 5 µM |  | MIC of colistin | 1 mg/L |
| C[C@H]1COc2c(N3CCN(C)CC3)c(F)cc3c(=O)c(C(=O)N[C@@H](CCCNC(=N)N)C(=O)N[C@@H](Cc4ccc(-c5ccccc5)cc4)C(=O)N[C@@H](CCCNC(=N)N)C(=O)N[C@@H](Cc4ccc(-c5ccccc5)cc4)C(=O)N[C@@H](CCCNC(=N)N)C(N)=O)cn1c23 |  | ATCC 1799 |  | relative to: IC50 MDCK cells over MIC | selectivity index | 35.2 |
| Oc1cc(C(F)(F)F)ccc1-c1nc2c(C(F)(F)F)cc(C(F)(F)F)cc2[nH]1 | colistin potentiator | AB 1E4, colistin-resistant | 5 µM |  | MIC of colistin | 0.5 mg/L |
| CC(C)C[C@H](NC(=O)[C@H](Cc1ccc(O)cc1)NC(=O)[C@@H]1CCCN1C(=O)[C@H](CCCNC(=N)N)NC(=O)[C@@H]1CCCN1C(=O)[C@H](CCCCN)NC(=O)[C@H](CC(=O)O)NC(=O)[C@@H]1CCCN1C(=O)[C@H](CCCNC(=N)N)NC(=O)C1(N)CCCCC1)C(=O)N1CCC[C@H]1C(=O)N[C@@H](CCCNC(=N)N)C(=O)N1CCC[C@H]1C(=O)N[C@@H](CCCNC(=N)N)C(=O)N1CCC[C@H]1C(=O)N1CCC[C@H]1C(=O)N[C@@H](CCCNC(=N)N)C(=O)N1CCC[C@H]1C(=O)N[C@H](C(=O)N[C@@H](CCCNC(=N)N)C(=O)N[C@@H](CSc1c(F)c(F)c(SC[C@H](NC(=O)[C@H](CCCNC(=N)N)NC(=O)[C@@H](NC(=O)[C@@H]2CCCN2C(=O)[C@H](CCCNC(=N)N)NC(=O)[C@@H]2CCCN2C(=O)[C@@H]2CCCN2C(=O)[C@H](CCCNC(=N)N)NC(=O)[C@@H]2CCCN2C(=O)[C@H](CCCNC(=N)N)NC(=O)[C@@H]2CCCN2C(=O)[C@H](CC(C)C)NC(=O)[C@H](Cc2ccc(O)cc2)NC(=O)[C@@H]2CCCN2C(=O)[C@H](CCCNC(=N)N)NC(=O)[C@@H]2CCCN2C(=O)[C@H](CCCCN)NC(=O)[C@H](CC(=O)O)NC(=O)[C@@H]2CCCN2C(=O)[C@H](CCCNC(=N)N)NC(=O)C2(N)CCCCC2)C(C)C)C(=O)NN)c(F)c1F)C(=O)NN)C(C)C |  | 19606 |  |  | MBC | 14.1 ± 0.9 mg/L (≈ 2.64 µM) |

Excerpt of the above:
| Structure (SMILES) | assay | system | conditions | how to read | measurement | result |
| --- | --- | --- | --- | --- | --- | --- |
| CCn1c(-c2ccc(OC)cc2)c(-c2ccc(OC)cc2)n(CC)c1=[Se+][Au-][P+](CC)(CC)CC.[Cl-] |  | carbapenem-resistant | 10, 20, 40 µM, 2 h | relative to: untreated | glutathione content | decreased |
